Published values from different studies.
Numbered parts are unrelated; each lists some results of a single study.

Set 1
Target: Histone acetyltransferase KAT6A, winged helix 2, GST fusion (KAT6A, Homo sapiens, UniProt Q92794, residues 85-181)
Method: protein binding microarray
Form: double-stranded DNA, one strand shown
Matrix: in vitro
Tested at: not given
Setting: 8-mer, flanks averaged, mean of 2 arrays, mostly near background
Baseline: not given
Direction: higher = stronger binding
Target sequence (chain): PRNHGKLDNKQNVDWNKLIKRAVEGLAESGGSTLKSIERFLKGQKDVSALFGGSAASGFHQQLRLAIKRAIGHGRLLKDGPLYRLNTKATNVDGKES
`ACGGGAGA` gave an E-score of 0.0192.
`ATGCCCCA` gave an E-score of -0.0909.
For `CTAAGGCC`, the E-score was -0.00613.
With `ATTGAAGG` the E-score was -0.116.
`ATTACTTC` gave an E-score of -0.167.
For `GATCCACC`, the E-score was -0.13.
The E-score of `CTATCTAA` is reported as -0.15.
With `CTCCTGGA` the E-score was -0.11.
`AGTTTGGC` gave an E-score of 0.0708.
`ATCTTTGG` has an E-score of 0.0294.
`CCGGTGTA` has an E-score of 0.0612.
`ATGGAATA` has an E-score of -0.0104.
`TAGTGCAA` gave an E-score of 0.163.
The E-score of `GCTGTGTA` is reported as -0.0152.
`AAGCGCGA` gave an E-score of 0.124.
The E-score of `CGCTGAGA` is reported as -0.0806.
With `AACTCGGT` the E-score was -0.0391.
The E-score of `ACACGGAT` is reported as -0.0286.
`CACCAGCC` gave an E-score of 0.11.

Set 2
Target: Max-binding protein MNT, bHLH-zipper, MAX partner unstated (MNT, Homo sapiens, UniProt Q99583, residues 220-300)
Method: protein-binding microarray
Form: double-stranded DNA, one strand shown
Matrix: in vitro
Tested at: not given
Setting: k-mer, scored over probes, only values ≥0.25
Direction: higher = stronger binding
Target sequence (chain): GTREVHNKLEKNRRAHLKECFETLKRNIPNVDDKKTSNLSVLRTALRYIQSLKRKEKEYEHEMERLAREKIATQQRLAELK
`GCGTGTAC` has an E-score of 0.414.
The E-score of `GCATGGCA` is reported as 0.393.
The E-score of `ACCGCGTG` is reported as 0.483.
For `AGGGCACG`, the E-score was 0.32.
`CGTGGCTC` has an E-score of 0.382.
For `GTGCACGA`, the E-score was 0.348.
`CACGTGCA` gave an E-score of 0.497.

Set 3
Target: Ras GTPase-activating protein-binding protein 1, C-terminal RGG region (G3BP1, Homo sapiens, UniProt Q13283)
Chain of UniProt Q13283 (whole entry, looked up): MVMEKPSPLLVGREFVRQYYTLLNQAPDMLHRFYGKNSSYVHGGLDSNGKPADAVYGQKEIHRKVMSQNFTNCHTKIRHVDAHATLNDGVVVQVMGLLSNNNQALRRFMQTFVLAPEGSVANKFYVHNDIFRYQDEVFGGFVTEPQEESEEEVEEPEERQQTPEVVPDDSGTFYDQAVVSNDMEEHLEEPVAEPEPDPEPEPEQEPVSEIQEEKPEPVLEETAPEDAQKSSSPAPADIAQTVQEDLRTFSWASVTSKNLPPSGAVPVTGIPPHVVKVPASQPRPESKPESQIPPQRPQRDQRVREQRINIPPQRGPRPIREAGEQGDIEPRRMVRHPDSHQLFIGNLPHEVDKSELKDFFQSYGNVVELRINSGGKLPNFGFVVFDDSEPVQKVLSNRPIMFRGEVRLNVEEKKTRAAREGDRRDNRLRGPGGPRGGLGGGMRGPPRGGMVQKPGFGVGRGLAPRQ
Method: RNA Bind-n-Seq
Form: RNA
Matrix: in vitro
Tested at: 1 µM
Setting: whole 134-nt RNA, ends assumed
Together with: 150 mM KCl
Baseline: input library
Direction: higher = stronger binding
For `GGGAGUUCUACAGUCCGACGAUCAGUCCUGUGCUACACAUCGUAUGUACCGAAUCAAAUUUAAACCCCCCCAAACCCAAAAAAGUAUUAUGUUACGCCGUUCGGAUCUGCACUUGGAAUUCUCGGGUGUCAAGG`, the log2 enrichment was -0.842.
With `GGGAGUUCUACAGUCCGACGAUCUGGGAGGUGGAUUUUGUUUAUUUUUUUAGCUCAUUUCCAAGGGUGGGAAUUUUUUUUUAAUAUGUGUCAUGAAUAAAGUUGUUUUUGAAAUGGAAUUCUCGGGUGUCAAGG` the log2 enrichment was 3.41.
`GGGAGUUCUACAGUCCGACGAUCCUCAAGUCCUGUGCUACACAUCGUAUGUACCGAAUCGGGGUGGGUGGGGUGGGAAAGUAUUAUGUUACGCCGUUCGGAUCUGCACUUCCAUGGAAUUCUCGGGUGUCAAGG` has a log2 enrichment of 1.3.
With `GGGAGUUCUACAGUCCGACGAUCCCUGUGCUACACAUCGUAUGUACCGAAUCGGGCCCCCCGGGGCCCCCCGGGGCCCCCCGGGAAAGUAUUAUGUUACGCCGUUCGGAUCUGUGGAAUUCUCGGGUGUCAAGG` the log2 enrichment was -1.94.
`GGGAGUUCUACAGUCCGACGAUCUGGCCCUGGUGGCAUGCGGGGAGGAAAAGGUGGCCUCAUGGAUCGUGGUGGUCCCGGUGGAAUGUUCAGAGGUGGCCGUGGUGGAGACAGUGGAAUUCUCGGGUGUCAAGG` has a log2 enrichment of 2.18.
`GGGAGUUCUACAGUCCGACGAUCAGUCCUGUGCUACACAUCGUAUGUACCGAAUCGGCCCCCCGGCCCCCCGGCCCCCCGGAAAGUAUUAUGUUACGCCGUUCGGAUCUGCACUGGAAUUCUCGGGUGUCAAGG` has a log2 enrichment of -1.61.
The log2 enrichment of `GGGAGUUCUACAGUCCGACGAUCCCUGUGCUACACAUCGUAUGUACCGAAUCGGUUUUUUUGGUUUUUUUGGGGUUUUUUUGGAAAGUAUUAUGUUACGCCGUUCGGAUCUGCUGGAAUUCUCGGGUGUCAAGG` is reported as -1.7.
`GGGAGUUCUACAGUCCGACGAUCGUCCUGUGCUACACAUCGUAUGUACCGAAUCGUGUGUGUGUGUGUGUGUGUGUGUGUGAAAGUAUUAUGUUACGCCGUUCGGAUCUGCACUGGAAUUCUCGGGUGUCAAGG` has a log2 enrichment of 1.46.
With `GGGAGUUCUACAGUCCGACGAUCUGGGAGGUGGAUUUUGUUUAUUUUUUUAGCUCAUUUCCAGGGGUGGGAAUUUUUUUUUAAUAUGUGUCAUGAAUGAAGUUGUUUUUGAAAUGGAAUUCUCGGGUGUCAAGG` the log2 enrichment was 2.75.
With `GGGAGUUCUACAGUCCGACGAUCUCCUCAAGUCCUGUGCUACACAUCGUAUGUACCGAAUCGGUUUGGUGGUGGAAAGUAUUAUGUUACGCCGUUCGGAUCUGCACUUCCAGCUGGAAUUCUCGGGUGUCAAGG` the log2 enrichment was -0.795.
`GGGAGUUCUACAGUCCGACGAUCUGGGAGGUGGAUUUUGUUUAUUUUUUUAGCUCAUUUCCAGGGGUGGGAAUUUUUUUUUAAUAUGUGUCAUGAAUAAAGUUGUUUUUGAAUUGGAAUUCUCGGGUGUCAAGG` gave a log2 enrichment of 3.09.
The log2 enrichment of `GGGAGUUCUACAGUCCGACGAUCUUCCUCAAGUCCUGUGCUACACAUCGUAUGUACCGAAUCGGCGGCGGCGGGAAAGUAUUAUGUUACGCCGUUCGGAUCUGCACUUCCAGCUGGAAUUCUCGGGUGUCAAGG` is reported as -0.578.
With `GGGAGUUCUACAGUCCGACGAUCAAGUCCUGUGCUACACAUCGUAUGUACCGAAUCGGGGUUUUGGUUUUGGGUUUUGGGAAAGUAUUAUGUUACGCCGUUCGGAUCUGCACUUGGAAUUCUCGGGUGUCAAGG` the log2 enrichment was -1.1.

Mixed results
The fold induction of `PhoQ, residues 284 288 289 292 302 303 SSYNSA` is reported as 10.3 (PhoP, residues 12 14 15 18 19 QYFSL (Escherichia coli, UniProt P23836); Sort-seq, item: YFP reporter; E. coli; PhoQ-PhoP variant library, together with: 10 µM Mg2+; baseline: high Mg2+ state, higher = stronger signaling).

Excerpt of the above (set 1):
`AAGCGCGA` gave an E-score of 0.124.
The E-score of `CGCTGAGA` is reported as -0.0806.
With `AACTCGGT` the E-score was -0.0391.
The E-score of `ACACGGAT` is reported as -0.0286.
`CACCAGCC` gave an E-score of 0.11.
